Experimental data pooled from the literature.
Parts stem from different laboratories: compare values within a part only. Substitutions count along the parent as printed.

Set 1
Target: CCNA1, cyclin fold, Cln2 fusion (human)
Method: yeast growth competition, sequencing
Matrix: yeast
Setting: weak parent motif
Baseline: not given
Direction: higher = stronger binding
Endpoint: normalised enrichment score
Parent: INSM1 docking peptide (human); PKAIRKLHFEDEV
Variant = PKAIRKLHNEDEV [F9N]; value = -0.0139
Variant = PKAIRKLHFHDEV [E10H]; value = 0.177
Variant = PKAIRKTHFEDEV [L7T]; value = 0.211
Variant = PIAIRKLHFEDEV [K2I]; value = 0.0421
Variant = PKHIRKLHFEDEV [A3H]; value = 0.824
Variant = PKAIRKLHVEDEV [F9V]; value = 0.00675

Set 2
Target: Histone acetyltransferase KAT6A, both winged helices, GST fusion (KAT6A, Homo sapiens, UniProt Q92794, residues 1-181)
Method: protein binding microarray
Molecule type: double-stranded DNA, one strand shown
Matrix: in vitro
Tested at: not given
Setting: 8-mer, flanks averaged, mean of 2 arrays, mostly near background
Baseline: not given
Direction: higher = stronger binding
Endpoint: E-score
Target sequence (chain): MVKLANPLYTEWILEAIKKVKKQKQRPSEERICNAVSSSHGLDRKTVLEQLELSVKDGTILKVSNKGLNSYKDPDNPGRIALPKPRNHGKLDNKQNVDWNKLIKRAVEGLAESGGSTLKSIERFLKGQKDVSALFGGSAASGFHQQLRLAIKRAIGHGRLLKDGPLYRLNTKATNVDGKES
Oligonucleotide = CCTGGTCA; value = -0.172
Oligonucleotide = TGCTCTAA; value = -0.0629
Oligonucleotide = AATGACAC; value = -0.092
Oligonucleotide = TACTGAAA; value = -0.0428
Oligonucleotide = AGGGCATC; value = -0.203
Oligonucleotide = GCCATGCC; value = 0.122
Oligonucleotide = ATGGCCCG; value = 0.216
Oligonucleotide = ACGTCAAT; value = -0.0766
Oligonucleotide = CAGACCCA; value = -0.211
Oligonucleotide = CTGGGAAA; value = -0.109
Oligonucleotide = ACTTATCG; value = -0.0577
Oligonucleotide = TGGTACAA; value = -0.184
Oligonucleotide = AGCTACTA; value = -0.0748

Set 3
Target: Sal-like protein 4, full length isoform B (SALL4, Homo sapiens, UniProt Q9UJQ4-2, residues 1-616)
Method: universal PBM
Molecule type: double-stranded DNA, one strand shown
Matrix: in vitro
Tested at: not given
Setting: 8-mer, flanks averaged, mean of replicates
Direction: higher = stronger binding
Endpoint: E-score
Oligonucleotide = GGGCAGAA; value = -0.0684
Oligonucleotide = TAAAGGAA; value = 0.171
Oligonucleotide = AGTCAGTC; value = -0.191
Oligonucleotide = AACTTTCG; value = 0.0664
Oligonucleotide = AGGGACGG; value = -0.349
Oligonucleotide = ACTGTCTG; value = -0.0471
Oligonucleotide = TCCTGAGA; value = -0.00389
Oligonucleotide = CTGTTCCA; value = -0.0751
Oligonucleotide = AAGAGATC; value = -0.0967
Oligonucleotide = CGGGATGA; value = -0.199
Oligonucleotide = CAGCATTA; value = 0.209
Oligonucleotide = AAGGCCTA; value = -0.113
Oligonucleotide = AGCTTTTA; value = 0.0661

Other studies, line by line
Molecule = PhoQ, residues 284 288 289 292 302 303 MLMVEA; target = PhoP, residues 12 14 15 18 19 VQALL (Escherichia coli, UniProt P23836); assay = Sort-seq, refers to: YFP reporter; test system = E. coli; conditions = PhoQ-PhoP variant library, with: 10 µM Mg2+; scale = baseline: high Mg2+ state, higher = stronger signaling; endpoint = fold induction; value = 16.6

Some of these lines once more (set 2):
Oligonucleotide = ACTTATCG; value = -0.0577
Oligonucleotide = ACGTCAAT; value = -0.0766
Oligonucleotide = TGCTCTAA; value = -0.0629
Oligonucleotide = AGCTACTA; value = -0.0748
